Measured values from different studies.
Parts stem from different laboratories: compare values within a part only. Changes are numbered by the printed parent chain.

Study 1
Target: FOS, bZIP domain (human)
Method: DHFR protein complementation
Sample: yeast
Setting: single substitutions, most at no-binding floor
Relative to: wild-type JUN-FOS pair
Direction: higher = stronger binding
Measurement: binding fitness
Starting sequence: JUN, bZIP domain (human); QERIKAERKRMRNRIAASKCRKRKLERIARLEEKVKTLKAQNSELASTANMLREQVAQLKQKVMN; partner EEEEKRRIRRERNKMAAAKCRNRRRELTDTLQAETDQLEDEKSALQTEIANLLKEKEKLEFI
R30K: -0.0897 natural log
S43P: -1.26 natural log
M51W: -0.158 natural log
I28G: -0.24 natural log
Q41R: -0.274 natural log
E32R: 0.0289 natural log
V35Q: -0.414 natural log
Q58C: -0.0712 natural log
E54S: -0.214 natural log
K36W: -0.373 natural log
S47P: -1.29 natural log
K34A: -0.144 natural log
V56P: -1.23 natural log

Study 2
Target: Fragile X messenger ribonucleoprotein 1, C-terminal low-complexity region (Fmr1, Mus musculus, UniProt P35922)
Method: RNA Bind-n-Seq
Molecule type: RNA
Sample: in vitro
Concentration: 200 nM
Setting: whole 134-nt RNA, ends assumed
With: 150 mM KCl
Relative to: input library
Direction: higher = stronger binding
Measurement: log2 enrichment
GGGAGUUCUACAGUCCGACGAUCUGUUUUAAGGUUGCCAACUUUGCAACAAUGGAAGAUGAAGAAGAGCUAGAAGAGCGUCCUCACAAGGACUGGGAUGAGAUCAUUCCAGAGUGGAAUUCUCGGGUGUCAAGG: -1.29
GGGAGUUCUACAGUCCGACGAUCAAGUCCUGUGCUACACAUCGUAUGUACCGAAUCGGGGCCCGGGCCCGGGCCCGGGGAAAGUAUUAUGUUACGCCGUUCGGAUCUGCACUUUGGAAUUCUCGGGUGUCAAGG: -0.0593
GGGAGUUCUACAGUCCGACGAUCUCCUGUGCUACACAUCGUAUGUACCGAAUCGGAAAAAAAGGGAAAAAAAGGAAAAAAAGGAAAGUAUUAUGUUACGCCGUUCGGAUCUGCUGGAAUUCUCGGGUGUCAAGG: -0.303
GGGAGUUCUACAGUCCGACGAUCUCCUCAAGUCCUGUGCUACACAUCGUAUGUACCGAAUCGGAGGAGGGGAGGGAAAGUAUUAUGUUACGCCGUUCGGAUCUGCACUUCCAGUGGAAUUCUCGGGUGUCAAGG: 0.199
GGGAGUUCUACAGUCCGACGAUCUCAAGUCCUGUGCUACACAUCGUAUGUACCGAAUCGGAAAAAGGAGGUUUUUGGAAAGUAUUAUGUUACGCCGUUCGGAUCUGCACUUCCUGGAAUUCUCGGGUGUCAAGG: -0.412
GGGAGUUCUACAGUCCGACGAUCAGUCCUGUGCUACACAUCGUAUGUACCGAAUCGGGUUUUGGGGUUUUGGUUUUGGGGAAAGUAUUAUGUUACGCCGUUCGGAUCUGCACUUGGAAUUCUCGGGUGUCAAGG: 0.321
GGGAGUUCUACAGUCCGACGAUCAGUCCUGUGCUACACAUCGUAUGUACCGAAUCGGGAAAGGGAAAGGGAAAAAAAGGGAAAGUAUUAUGUUACGCCGUUCGGAUCUGCACUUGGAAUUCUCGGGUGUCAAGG: -0.154
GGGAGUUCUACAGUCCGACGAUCUAACUUUAGAGGAGGAUCUGAUGGAUAUGGCAGUGGACGUGGAUCUGGGGAUGGCUAUAAUGGGUAUGGAGGAGGACCUGGAGGUGGCAAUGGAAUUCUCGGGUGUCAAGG: 0.129
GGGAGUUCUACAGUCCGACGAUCAGUCCUGUGCUACACAUCGUAUGUACCGAAUCGGGGAAAAAGGGGAAAGGGGUGGGGAAAGUAUUAUGUUACGCCGUUCGGAUCUGCACUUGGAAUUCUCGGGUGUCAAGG: 0.249

Study 3
Target: RNA binding protein fox-1 homolog 2, RRM domain, GST-SBP tag (RBFOX2, Homo sapiens, UniProt O43251-10, residues 100-194)
Method: RNA Bind-n-Seq
Molecule type: RNA
Sample: in vitro
Concentration: 365 nM
Setting: natural RNA segment, single round, ends assumed
Relative to: no-protein control
Direction: higher = stronger binding
Measurement: RBNS enrichment (R)
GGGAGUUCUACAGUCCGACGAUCUUGUACUCAAUGGUAUCAUUACAAUUUUCUGUAAGAGAAAAUAUUACUUAUUUAUCCUAGUAUUCCUAACCUGUCAGAAUAAUAAAUAUUGGAACCAAGACAUGGUAAACUGGAAUUCUCGGGUGCCAA: 0.529
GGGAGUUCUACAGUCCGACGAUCGCUGCAGUCCUAAAGUCUCAAGCUAGAGGGUGGGGGCCACGGAAGGAAGGCAGCCUUUCAGGUAGCAAGAUUAAAUAUUGCUGUUGCCAAAUAGUAUUUGAAAUAAUACCUGGAAUUCUCGGGUGCCAA: 0.477
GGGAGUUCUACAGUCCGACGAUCUCACCUUUACUCCAGUUCCCAACAAGUUCCUCAUCUUCAUCUGAGGCCACCUCAGCCUGGACUUUGUUGUCCAUAUUGCUAUCAGCAUUUGGGGCAAAGCCAUUCAACAAUGGAAUUCUCGGGUGCCAA: 0.41
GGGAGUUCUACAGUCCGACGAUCCAGACUUCUGCCCGCUUGGGACAGAACAUUGCAUGUGAGGUGGGAUUAUCAAGUUUCAAAGACCUGUGUCAACCAUACAGCAAAGGCAGACCCCAUAACGACGUCCCACAUGGAAUUCUCGGGUGCCAA: 1.86
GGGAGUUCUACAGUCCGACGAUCAGACAGAUGAUUACUAUGCCUCAUGUGCUGUGUGCUCUUUGAAAGGAAUGACAGCAGACUACAAAGCAAAUAAGAUAUACUGAGCCUCAACAGAUUGCCUGCUCCUCAGAUGGAAUUCUCGGGUGCCAA: 0.377
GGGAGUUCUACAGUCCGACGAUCCCUGUGACAUCCCCUCGCCCUGCAUGGAGCCUGUGUGUCACAGAAUCGCCCAACACUCCUGCACAUCAGCAGCACCAGGCCCGGGAGUGCCACGAGUGUUGAACCUCAUCUGGAAUUCUCGGGUGCCAA: 5.07
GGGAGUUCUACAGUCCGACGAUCUUUCUGGCUGCUGGAAUUGGAGAUAGGAUGUUUUGCUUCCCACUGCAGGAGAGCUGCCCCCUUUCACGGGGUUGGGGAAGGGUCCCCCUGGCCUCCAGCAGGAGCACAGCUGGAAUUCUCGGGUGCCAA: 0.9
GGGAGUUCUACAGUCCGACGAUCACCAUGGUUCUGAUUGUUGUGUAUAUUUUUCUAAAGGCUGAAUAAAGCUAUCUAUGAAUGUGAACAAUGGGUCUACGUCUGUUGUUUUUAAGUUUUAAGUUUGAAACCAGUGGAAUUCUCGGGUGCCAA: 0.504

Study 4
Target: CCNB3, cyclin fold, Cln2 fusion (human)
Method: yeast growth competition, sequencing
Sample: yeast
Setting: weak parent motif
Relative to: not given
Direction: higher = stronger binding
Measurement: normalised enrichment score
Starting sequence: INSM1 docking peptide (human); PKAIRKLHFEDEV
PKAIRKLHSEDEV [F9S]: -0.0788
PKAIRKLHQEDEV [F9Q]: -0.212
PKAIRKLTFEDEV [H8T]: 0.731
PKAIRKLHHEDEV [F9H]: 0.16
PKAIRWLHFEDEV [K6W]: 0.231
PKAIRKLHFEVEV [D11V]: 0.16
PKPIRKLHFEDEV [A3P]: 0.214
PKAIRKLHFCDEV [E10C]: 0.0461
PKAIRDLHFEDEV [K6D]: 0.108
PKAIRKLHFEAEV [D11A]: 0.426
PKAIRKLMFEDEV [H8M]: -0.0342
PKWIRKLHFEDEV [A3W]: -0.262
PKAIRILHFEDEV [K6I]: 0.504
PKAIRKLHFYDEV [E10Y]: 0.145
PFAIRKLHFEDEV [K2F]: 0.56
PKAIRKLHFEFEV [D11F]: 0.664
PKAIRKEHFEDEV [L7E]: -0.000781
PTAIRKLHFEDEV [K2T]: 0.495
PKAIRKLHFEHEV [D11H]: 0.19
PKAIRKLHFEWEV [D11W]: 0.246
PYAIRKLHFEDEV [K2Y]: 0.477
PKAVRKLHFEDEV [I4V]: 0.255
PKAIRKLHFENEV [D11N]: 0.343
PKAIRKLAFEDEV [H8A]: 0.228
PKAIRKLHLEDEV [F9L]: 0.0928

Single results of other studies
PhoQ, residues 284 288 289 292 302 303 SSTLLI — fold induction (PhoP, residues 12 14 15 18 19 NHFRA (Escherichia coli, UniProt P23836); Sort-seq, refers to: YFP reporter; E. coli; PhoQ-PhoP variant library, with: 10 µM Mg2+; relative to: high Mg2+ state, higher = stronger signaling): 1.54
